Experimental data collected from several papers.
Every numbered part comes from another study and shows a few of its results, in no order.

Set 1 — Sequence: GFGFLLFICKLTF; technique: competitive growth deep sequencing; molecule type: peptide; concentration: concentration not given; direction: direction not given
The “growth enrichment score” was 1.41 (yeast with cyclin F-Cln2 chimera; cell growth, binder; peptide tiling library).
For yeast with cyclin E2-Cln2 chimera; cell growth, binder; peptide tiling library: “growth enrichment score” read 0.226.
It gave -0.0258 for “growth enrichment score” (Saccharomyces cerevisiae; binding; cyclin D3-Cln2 fusion strain; peptide library 2).
yeast with cyclin A1-Cln2 chimera; cell growth, binder; peptide tiling library — “growth enrichment score”: -1.25.
For Saccharomyces cerevisiae; binding; cyclin E1-Cln2 fusion strain; peptide library 2: “growth enrichment score” read 1.23.

Set 2 — technique: protein binding microarray; molecule type: double-stranded DNA, one strand shown; medium: in vitro; concentration: not given; reference: not given; direction: higher = stronger binding
Target: Histone acetyltransferase KAT6A, both winged helices, GST fusion (KAT6A, Homo sapiens, UniProt Q92794, residues 1-181)
Setting: 8-mer, flanks averaged, mean of 2 arrays, mostly near background
Residues (chain): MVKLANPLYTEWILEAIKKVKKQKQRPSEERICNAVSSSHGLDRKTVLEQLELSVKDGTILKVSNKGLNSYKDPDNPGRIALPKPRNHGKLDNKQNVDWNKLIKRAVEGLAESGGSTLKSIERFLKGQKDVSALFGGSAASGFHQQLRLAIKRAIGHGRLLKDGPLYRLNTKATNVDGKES
For `CCTGATCG`, the E-score was -0.0684.
With `ACAAAGAC` the E-score was -0.0838.
`GGTATCAC` has an E-score of -0.0815.
`GCTCGGAA` gave an E-score of 0.123.
The E-score of `ATTGAACA` is reported as -0.00068.
`AACGGTGG` has an E-score of -0.0816.
`ATGACCAC` gave an E-score of 0.0438.
`AGAGATGG` gave an E-score of -0.229.
`AAGCAAGA` has an E-score of -0.174.
`CCACCAGG` gave an E-score of -0.182.
`CTTAACTA` has an E-score of 0.0124.
With `AATTTCCA` the E-score was -0.0712.
`AGCGGCCA` gave an E-score of 0.178.
`ATGTTAAT` gave an E-score of -0.0872.
For `ACCTTCAC`, the E-score was -0.129.
`TACCACTA` gave an E-score of -0.121.
With `AGTCCGCG` the E-score was 0.318.
With `CGGGGACA` the E-score was 0.127.
With `CACTTTGG` the E-score was -0.0734.
The E-score of `CCTTAAGC` is reported as 0.0138.
The E-score of `ACTAATCT` is reported as -0.168.
`GAAGCAAC` has an E-score of -0.0855.
With `ACGCGTTC` the E-score was 0.346.

Set 3 — technique: competition protein-binding microarray; molecule type: double-stranded DNA, one strand shown; medium: in vitro; concentration: 2 µM; with: Pho4 competitor, 0.05 µM; direction: higher = stronger binding
Target: Centromere-binding protein 1, full length, His-tagged (CBF1, Saccharomyces cerevisiae, UniProt P17106, residues 1-351)
UniProt P17106, sequence (whole entry, looked up): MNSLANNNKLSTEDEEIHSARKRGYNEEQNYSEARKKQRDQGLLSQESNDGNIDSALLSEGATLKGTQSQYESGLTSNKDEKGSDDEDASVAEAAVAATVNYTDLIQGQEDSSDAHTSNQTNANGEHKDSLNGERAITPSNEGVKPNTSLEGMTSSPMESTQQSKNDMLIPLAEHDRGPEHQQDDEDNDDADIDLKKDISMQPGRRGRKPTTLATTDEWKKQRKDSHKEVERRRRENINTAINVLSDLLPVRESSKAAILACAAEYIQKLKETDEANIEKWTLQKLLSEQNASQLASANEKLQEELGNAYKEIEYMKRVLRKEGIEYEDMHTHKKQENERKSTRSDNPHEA
Setting: whole 60-bp probe, lowest competitor level
`AAGCCCAGATACAATCACCTGTAGAAAGAAACAAAGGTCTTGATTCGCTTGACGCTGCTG` has a fluorescence intensity of 91.8 a.u.
The fluorescence intensity of `TACAGCTGCCATTTGACCGTGCAATACAGCAAATTAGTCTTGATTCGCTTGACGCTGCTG` is reported as 77.5 a.u.
`TCGAACAACCTTCCCAACGTGAAGAAGCTAAGAAAGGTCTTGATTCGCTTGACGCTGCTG` gave a fluorescence intensity of 77.2 a.u.
`GGCAAATACTGCCGACACGTTGCCAAATCGCTGACCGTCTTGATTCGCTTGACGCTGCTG` gave a fluorescence intensity of 112 a.u.
`TGCGCAACAACTTGATGAGTGGGTGTATGTCTAGAAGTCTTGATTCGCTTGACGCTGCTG` gave a fluorescence intensity of 66.7 a.u.
`TCTCTTCTATCTTTAAAAGCAGGATGTGTTTCTTCCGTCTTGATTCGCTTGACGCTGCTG` gave a fluorescence intensity of 78.3 a.u.
`CCAAGGAAATCCCGTCACAATACGCTCCTCAGTTGAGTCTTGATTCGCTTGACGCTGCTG` gave a fluorescence intensity of 61.3 a.u.
`CTATCCCTAGATTTCGTCGTGCCGAGACCCAAATAGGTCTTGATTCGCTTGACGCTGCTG` has a fluorescence intensity of 67.5 a.u.
`CTAACGAAGGTTTGTTGAGTGGGTGACAAGCCAAGTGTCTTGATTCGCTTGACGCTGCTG` gave a fluorescence intensity of 77.6 a.u.
The fluorescence intensity of `CATACCCAACCTTGTCACTTTACTTAAGATATTTGTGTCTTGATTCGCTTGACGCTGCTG` is reported as 89.6 a.u.
With `ATGGTTAGAAAAAGAAACGTGCAATCGCCCGTCTGGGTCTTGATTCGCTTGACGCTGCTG` the fluorescence intensity was 108 a.u.
`CAATTACAGAAATGCCCCGTGTAACAAGATGCGCTGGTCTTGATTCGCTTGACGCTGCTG` gave a fluorescence intensity of 101 a.u.
For `CGATTGGAAACCCGTCACGTGGAAGTGAGTCTATTAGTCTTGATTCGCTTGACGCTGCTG`, the fluorescence intensity was 3280 a.u.
For `CTTCTGTAAATTTTTCACGTGATCTGACGCGCCCCGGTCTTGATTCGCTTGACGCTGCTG`, the fluorescence intensity was 5020 a.u.
`GGTGGGCTATACTTCCGTGTGACGGATTTCACAAAGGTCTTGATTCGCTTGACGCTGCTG` gave a fluorescence intensity of 102 a.u.
The fluorescence intensity of `ACCAAATGTGGAAATGGCATGACAACCCCCCAGACAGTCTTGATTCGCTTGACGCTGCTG` is reported as 124 a.u.
The fluorescence intensity of `AAAGCGGTAATTTGAAGCGTGGGTGCAGATATCTATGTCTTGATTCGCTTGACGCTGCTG` is reported as 78.9 a.u.
For `CTAACGAAGGTTTGGAGGGTGGGTGACAAGCCAAGTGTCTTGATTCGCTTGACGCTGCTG`, the fluorescence intensity was 57.2 a.u.
`GTAATAGTACCTTAACACATGACGAAGATGAAAATTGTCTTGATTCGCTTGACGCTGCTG` has a fluorescence intensity of 370 a.u.
`AAAGCGGTAATTTGGGGGGTGGGTGCAGATATCTATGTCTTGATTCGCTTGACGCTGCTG` has a fluorescence intensity of 186 a.u.
`ACAAATTAATGGCACAACGTGGGTATGACGAAAAAGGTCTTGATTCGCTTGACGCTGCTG` gave a fluorescence intensity of 105 a.u.

Set 4 — technique: RNA Bind-n-Seq; molecule type: RNA; medium: in vitro; concentration: 365 nM; reference: no-protein control; direction: higher = stronger binding
Target: RNA binding protein fox-1 homolog 2, RRM domain, GST-SBP tag (RBFOX2, Homo sapiens, UniProt O43251-10, residues 100-194)
Setting: natural RNA segment, single round, ends assumed
Target sequence (chain): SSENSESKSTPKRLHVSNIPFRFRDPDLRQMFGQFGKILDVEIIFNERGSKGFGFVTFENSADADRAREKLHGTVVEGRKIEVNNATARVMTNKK
Under “RBNS enrichment (R)”, `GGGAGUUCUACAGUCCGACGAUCUAAUCUCUAUGUACAUAUCUAUCUACCUGUAACCGUAGAUAGGUAUCUAGAUAGAUACCAAGCUUUUAAGCUCUGGGCUACUAUGCAUCAUUAUUGGGUCUCUGCCUUAAUGGAAUUCUCGGGUGCCAA` is recorded as 0.627.
For `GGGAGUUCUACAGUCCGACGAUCGUUUGUUUUGUGCAUUAAGGGACAUAACUUGGGACUCAAAGGGAUUGUUUCGCUGACCCCGCUCUUGUGUGUUCCCUCUGGUGCCCACCCCAGGGCAUCUGCCAACUCCAUGGAAUUCUCGGGUGCCAA`, “RBNS enrichment (R)” read 0.549.
`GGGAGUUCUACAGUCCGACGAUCUGUUGGUGGGGAAAGGUGUCUUUCUUUCUGCCCCUUCCCCUUAAAUAAUUGUGUUCAUUUUUGUUUUGUUUCCUUGUGUACUCCAGCAUUGGUUAUAGUCAUGGGAAAGGUGGAAUUCUCGGGUGCCAA`: “RBNS enrichment (R)” 0.887.
`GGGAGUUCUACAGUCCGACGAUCAGUCCUGCAUCUUCUGUGUAGUAACAGGGUCCUUCGGGCUCCACAGUCAGUGCAGGUGGCUAGUCAUGUGUACUUCUGAUUGACCAAAUAGCACAUGUGUGGAAACACCCUGGAAUUCUCGGGUGCCAA`: “RBNS enrichment (R)” 0.431.
`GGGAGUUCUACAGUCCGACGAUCGACCAAACACGCUUUCAGCAGCUGCCUGCUCUGGACUUUGAAAGAGGUCAGGUCUUGCCCUAAGCUCAAAACAAGUGAGAGGUGUCCUGACCUAGCUCAUAGGGCAAAUGUGGAAUUCUCGGGUGCCAA`: “RBNS enrichment (R)” 0.24.
Under “RBNS enrichment (R)”, `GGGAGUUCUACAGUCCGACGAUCAGUUAAUAACGAAUGCUGUUUCAAACAUAACCAAUCUGAUCAUUUUUGGAGAACGAUUCACUUAUGAAGACACCGAUUUUCAGCACAUGAUUGAGUUAUUUAGUGAAAAUUGGAAUUCUCGGGUGCCAA` is recorded as 1.28.
`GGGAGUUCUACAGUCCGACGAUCCUUUAUUAGAAAGCAUUUUCUAGGUGUGUUUAGUGUACAAAGAGACUUUAUAACCCUUACUGGACAACACACAGAUCCUUGAGCUCACGCUGCAGGAUAGUACAGUUUUAUGGAAUUCUCGGGUGCCAA`: “RBNS enrichment (R)” 0.341.
Under “RBNS enrichment (R)”, `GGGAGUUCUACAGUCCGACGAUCCACAAAACCCACAACCCAGCACAAAGUCGACAAUGGAUUUUGUUUCUUUGAUUUAUUUUGCCAAUGGCAAAAAGACAAGACCUCGUUAGCACUGAGGAUUCUUGUUCCCUUGGAAUUCUCGGGUGCCAA` is recorded as 0.503.
For `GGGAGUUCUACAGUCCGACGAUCAAGGCUGAAUCCUUUUGACUCCUUGCUGUCUGACUCCUCAGUGGACUUGUUCCUCCAAAGCAGAACCCGGGAGGUUGCUAUCUGCCAGAAGCCUAGGCCAGCCAGAUACCUGGAAUUCUCGGGUGCCAA`, “RBNS enrichment (R)” read 0.195.
`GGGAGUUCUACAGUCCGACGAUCGGGUUUGCUCCCAGGAAAGGAGAGGAAGAGCUAUAUAUAUGUGCCGACAUGUGGCAGACACACAGUAAAUAAUGGCUGACCAGCAUGAGGGCAGUACUGUCAGAAAUUUCUGGAAUUCUCGGGUGCCAA`: “RBNS enrichment (R)” 13.
`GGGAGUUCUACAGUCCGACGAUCAGAGACAUCAUCACAAAACAGUAAAAACAAAAUCAACCCUGAACCCCAUGCACUGUGCUGCUUCCUGAGCCUGGCCCUGCAUCCUCAUAGAGGUGCCGGGUUCCUAUUGGUGGAAUUCUCGGGUGCCAA`: “RBNS enrichment (R)” 0.511.
`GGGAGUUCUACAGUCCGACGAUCCUUGCUUUUCUGGUAUGUUCUAGGUGUAUUGUGACUUUUACUGUUAUAUUAAUUGCCAAUAUAAGUAAAUAUAGAUUAUAUAUGUAUAGUGUUUCACAAAGCUUAGACCUUGGAAUUCUCGGGUGCCAA`: “RBNS enrichment (R)” 0.696.
